Published values gathered from unrelated publications.
± marks the error that the study gave.
SCN9A: Sodium channel protein type 9 subunit alpha (SCN9A, Homo sapiens, UniProt Q15858)
Sequence of UniProt Q15858 (whole entry, looked up): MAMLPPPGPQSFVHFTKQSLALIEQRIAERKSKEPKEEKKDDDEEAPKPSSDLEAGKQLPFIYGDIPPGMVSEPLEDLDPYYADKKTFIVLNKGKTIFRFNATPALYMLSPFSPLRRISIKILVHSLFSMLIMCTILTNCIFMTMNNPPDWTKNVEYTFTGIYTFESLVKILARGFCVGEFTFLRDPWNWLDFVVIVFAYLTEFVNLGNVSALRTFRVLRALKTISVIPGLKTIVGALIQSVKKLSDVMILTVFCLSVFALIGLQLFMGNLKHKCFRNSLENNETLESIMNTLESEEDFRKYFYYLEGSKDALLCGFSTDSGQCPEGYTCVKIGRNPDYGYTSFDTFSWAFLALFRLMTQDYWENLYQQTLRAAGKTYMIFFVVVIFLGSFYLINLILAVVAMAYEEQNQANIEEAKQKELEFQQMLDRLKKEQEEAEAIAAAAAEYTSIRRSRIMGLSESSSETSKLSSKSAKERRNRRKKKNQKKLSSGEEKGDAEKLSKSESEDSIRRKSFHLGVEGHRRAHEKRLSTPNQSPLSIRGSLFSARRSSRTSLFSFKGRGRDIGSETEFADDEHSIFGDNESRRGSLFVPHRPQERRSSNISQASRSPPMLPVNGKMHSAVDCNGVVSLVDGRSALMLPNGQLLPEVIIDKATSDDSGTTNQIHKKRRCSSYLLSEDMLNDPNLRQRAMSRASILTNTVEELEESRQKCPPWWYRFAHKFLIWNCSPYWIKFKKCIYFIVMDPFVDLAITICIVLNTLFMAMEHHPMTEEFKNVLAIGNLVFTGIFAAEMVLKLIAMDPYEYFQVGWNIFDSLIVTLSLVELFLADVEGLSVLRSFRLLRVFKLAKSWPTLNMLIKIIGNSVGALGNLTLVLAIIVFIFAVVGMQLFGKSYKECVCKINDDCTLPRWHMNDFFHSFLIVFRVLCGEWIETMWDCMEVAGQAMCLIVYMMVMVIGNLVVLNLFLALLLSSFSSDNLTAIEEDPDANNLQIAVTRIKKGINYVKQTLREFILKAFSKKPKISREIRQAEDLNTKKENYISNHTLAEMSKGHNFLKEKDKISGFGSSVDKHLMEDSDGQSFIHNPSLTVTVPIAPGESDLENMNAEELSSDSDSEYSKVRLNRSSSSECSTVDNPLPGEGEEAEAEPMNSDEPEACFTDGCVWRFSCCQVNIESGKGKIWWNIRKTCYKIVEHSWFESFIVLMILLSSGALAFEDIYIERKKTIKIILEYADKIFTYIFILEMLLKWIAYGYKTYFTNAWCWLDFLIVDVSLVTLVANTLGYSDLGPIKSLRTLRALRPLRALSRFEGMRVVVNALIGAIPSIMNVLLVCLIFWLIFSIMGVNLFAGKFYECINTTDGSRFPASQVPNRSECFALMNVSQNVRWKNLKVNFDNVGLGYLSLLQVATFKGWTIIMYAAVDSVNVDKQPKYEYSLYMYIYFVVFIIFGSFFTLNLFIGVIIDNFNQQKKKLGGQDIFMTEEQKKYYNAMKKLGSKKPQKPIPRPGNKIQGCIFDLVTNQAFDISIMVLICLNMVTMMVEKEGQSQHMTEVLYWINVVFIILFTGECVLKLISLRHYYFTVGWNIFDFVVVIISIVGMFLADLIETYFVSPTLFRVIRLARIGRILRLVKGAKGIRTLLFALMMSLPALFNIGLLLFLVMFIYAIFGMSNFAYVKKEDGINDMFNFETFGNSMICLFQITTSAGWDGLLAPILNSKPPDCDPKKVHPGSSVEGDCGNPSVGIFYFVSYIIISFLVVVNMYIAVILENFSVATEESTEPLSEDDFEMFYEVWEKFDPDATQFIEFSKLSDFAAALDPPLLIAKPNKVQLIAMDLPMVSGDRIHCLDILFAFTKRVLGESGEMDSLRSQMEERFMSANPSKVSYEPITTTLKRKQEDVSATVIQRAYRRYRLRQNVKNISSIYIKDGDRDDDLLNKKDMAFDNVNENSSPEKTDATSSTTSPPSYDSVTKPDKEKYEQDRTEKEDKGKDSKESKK
MAL12: Alpha-glucosidase MAL12 (MAL12, Saccharomyces cerevisiae S288c, UniProt P53341)
Sequence of UniProt P53341 (whole entry, looked up): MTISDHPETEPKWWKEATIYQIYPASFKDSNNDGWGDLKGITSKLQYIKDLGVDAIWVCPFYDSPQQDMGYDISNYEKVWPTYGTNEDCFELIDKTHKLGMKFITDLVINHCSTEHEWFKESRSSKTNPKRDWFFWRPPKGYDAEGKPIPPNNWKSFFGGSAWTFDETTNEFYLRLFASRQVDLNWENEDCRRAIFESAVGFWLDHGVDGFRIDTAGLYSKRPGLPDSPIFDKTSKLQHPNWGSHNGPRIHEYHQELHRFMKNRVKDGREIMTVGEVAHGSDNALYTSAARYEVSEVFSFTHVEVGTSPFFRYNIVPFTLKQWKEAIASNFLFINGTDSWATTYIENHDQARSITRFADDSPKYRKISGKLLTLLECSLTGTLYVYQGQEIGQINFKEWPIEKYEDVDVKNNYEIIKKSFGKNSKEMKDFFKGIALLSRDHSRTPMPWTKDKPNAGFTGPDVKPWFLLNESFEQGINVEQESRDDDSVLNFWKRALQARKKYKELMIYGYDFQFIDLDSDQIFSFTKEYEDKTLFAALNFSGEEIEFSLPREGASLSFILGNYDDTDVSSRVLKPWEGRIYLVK
WWOX WW1 domain: WW domain-containing oxidoreductase, WW1 domain (WWOX, Homo sapiens, UniProt Q9NZC7)
Sequence of UniProt Q9NZC7 (whole entry, looked up): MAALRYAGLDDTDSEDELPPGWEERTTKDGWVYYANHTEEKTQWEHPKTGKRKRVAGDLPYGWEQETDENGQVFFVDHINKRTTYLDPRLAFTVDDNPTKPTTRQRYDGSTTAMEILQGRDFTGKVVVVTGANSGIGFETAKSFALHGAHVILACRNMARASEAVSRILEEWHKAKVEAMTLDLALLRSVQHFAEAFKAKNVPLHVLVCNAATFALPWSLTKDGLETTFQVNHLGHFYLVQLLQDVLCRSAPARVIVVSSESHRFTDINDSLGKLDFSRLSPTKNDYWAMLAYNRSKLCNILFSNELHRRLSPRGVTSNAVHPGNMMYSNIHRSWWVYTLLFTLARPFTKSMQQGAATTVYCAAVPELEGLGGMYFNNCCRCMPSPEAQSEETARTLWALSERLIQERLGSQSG
B1: UGT1A9 (Homo sapiens, UniProt O60656); chain GKLLVVPMDGSHWFTMRSVVEKLILRGHEVVVVMPEVSWQLGRSLNCTVKTYSTSYTLEDLDREFKAFAHAQWKAQVRSIYSLLMGSYNDIFDLFFSNCRSLFKDKKLVEYLKESSFDAVFLDPFDNCGLIVAKYFSLPSVVFARGILCHYLEEGAQCPAPLSYVPRILLGFSDAMTFKERVRNHIMHLEEHLLCHRFFKNALEIASEILQTPVTEYDLYSHTSIWLLRTDFVLDYPKPVMPNMIFIGGINCHQGKPLPMEFEAYINASGEHGIVVFSLGSMVSEIPEKKAMAIADALGKIPQTVLWRYTGTRPSNLANNTILVKWLPQNDLLGHPMTRAFITHAGSHGVYESICNGVPMVMMPLFGDQMDNAKRMETKGAGVTLNVLEMTSEDLENALKAVINDKSYKENIMRLSSLHKDRPVEPLDLAVFWVEFVMRHKGAPHLRPAAHDLTWYQYHSLDVIGFLLAVVLTVAFITFKCCAYGYRKCLGKKGRVKKAHKSKTH
Sequence of UniProt P0DMV8 (whole entry, looked up): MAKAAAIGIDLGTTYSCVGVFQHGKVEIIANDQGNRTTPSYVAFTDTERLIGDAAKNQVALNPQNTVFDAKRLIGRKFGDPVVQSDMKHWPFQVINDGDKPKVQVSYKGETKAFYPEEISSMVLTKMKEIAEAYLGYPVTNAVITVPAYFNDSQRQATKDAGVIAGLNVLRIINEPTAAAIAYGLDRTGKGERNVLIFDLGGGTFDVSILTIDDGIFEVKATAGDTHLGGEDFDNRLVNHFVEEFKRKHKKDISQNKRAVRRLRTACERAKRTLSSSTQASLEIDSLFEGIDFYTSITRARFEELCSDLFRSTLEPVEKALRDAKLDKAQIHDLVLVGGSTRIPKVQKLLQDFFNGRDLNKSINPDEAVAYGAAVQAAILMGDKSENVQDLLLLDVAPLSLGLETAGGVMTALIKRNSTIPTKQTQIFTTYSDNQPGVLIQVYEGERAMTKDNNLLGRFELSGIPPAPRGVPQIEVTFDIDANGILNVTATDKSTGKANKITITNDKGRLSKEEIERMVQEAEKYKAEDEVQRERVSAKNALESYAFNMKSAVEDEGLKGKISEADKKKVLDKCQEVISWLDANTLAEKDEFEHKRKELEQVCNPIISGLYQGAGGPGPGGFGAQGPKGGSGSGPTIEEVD
Sequence of UniProt P69905 (whole entry, looked up): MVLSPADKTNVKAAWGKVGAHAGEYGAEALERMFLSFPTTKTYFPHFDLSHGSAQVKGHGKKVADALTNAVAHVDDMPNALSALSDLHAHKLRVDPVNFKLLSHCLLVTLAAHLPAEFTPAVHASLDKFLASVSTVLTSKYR
Sequence of UniProt P35398 (whole entry, looked up): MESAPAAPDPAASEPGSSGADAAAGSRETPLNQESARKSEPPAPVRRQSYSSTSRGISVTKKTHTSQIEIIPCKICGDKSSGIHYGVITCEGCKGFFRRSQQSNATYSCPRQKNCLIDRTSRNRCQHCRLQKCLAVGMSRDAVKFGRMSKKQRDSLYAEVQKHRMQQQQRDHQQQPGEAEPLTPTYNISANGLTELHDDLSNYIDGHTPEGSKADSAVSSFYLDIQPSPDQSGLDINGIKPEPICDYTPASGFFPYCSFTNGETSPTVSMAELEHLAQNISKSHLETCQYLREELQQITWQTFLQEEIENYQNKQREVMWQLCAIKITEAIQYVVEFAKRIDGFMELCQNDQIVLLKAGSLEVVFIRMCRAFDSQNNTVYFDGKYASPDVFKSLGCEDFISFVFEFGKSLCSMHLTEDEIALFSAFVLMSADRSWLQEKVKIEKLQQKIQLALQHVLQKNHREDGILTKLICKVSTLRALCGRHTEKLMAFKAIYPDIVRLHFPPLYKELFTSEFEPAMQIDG
Sequence of UniProt O76082 (whole entry, looked up): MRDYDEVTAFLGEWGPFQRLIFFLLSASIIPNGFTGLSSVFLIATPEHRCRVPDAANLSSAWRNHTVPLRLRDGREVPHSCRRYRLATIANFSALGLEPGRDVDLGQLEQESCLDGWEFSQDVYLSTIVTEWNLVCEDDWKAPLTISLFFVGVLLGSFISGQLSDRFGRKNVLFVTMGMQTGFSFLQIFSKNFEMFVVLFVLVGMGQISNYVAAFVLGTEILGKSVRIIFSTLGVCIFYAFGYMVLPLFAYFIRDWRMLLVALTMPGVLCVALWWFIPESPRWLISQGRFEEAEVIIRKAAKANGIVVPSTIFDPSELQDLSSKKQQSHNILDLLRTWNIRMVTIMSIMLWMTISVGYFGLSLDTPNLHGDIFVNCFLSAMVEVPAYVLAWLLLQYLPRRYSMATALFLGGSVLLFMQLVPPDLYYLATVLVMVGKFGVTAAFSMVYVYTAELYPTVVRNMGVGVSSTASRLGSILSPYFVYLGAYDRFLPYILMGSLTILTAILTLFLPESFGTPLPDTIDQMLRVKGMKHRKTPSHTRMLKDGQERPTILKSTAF

Substance	target or system	assay	test system	conditions	scale	measurement	value
flavin mononucleotide	Isopentenyl-diphosphate delta-isomerase (fni, Streptococcus pneumoniae serotype 4, UniProt Q97SH8)	substrate	–	pH 7.0, 37 °C, substrate inhibition, added: 150 µM IPP and NADPH	–	Ki	6.4 ± 1 µM
O=C1c2c(O)cc(O)cc2O[C@H](c2cc(O)c(O)c(O)c2)[C@H]1O	GABA-A receptor benzodiazepine site (rat)	[3H]flunitrazepam binding, inhibitor	rat cortex membranes	–	–	lowest inhibitory concentration	0.3 µM
CC(C)OCc1ccc(C=O)o1	Hemoglobin subunit alpha, with sickle beta chain (HBA1, Homo sapiens, UniProt P69905)	oxygen affinity	sickle red cell lysate	2 mM	relative to: untreated	P50 change	38.4 ± 10.4%
B1 (UGT1A9)	COc1cc2oc(=O)cc(-c3ccccc3)c2cc1O	steady-state kinetics	–	pH 7.4, 37 °C	–	Km	312 µM
CC1=C(C(=O)OCc2ccccc2)C(c2ccc(-c3ccccc3)cc2)N(Cc2ccc(-c3nnn[nH]3)cc2)C(=S)N1 (stereo not drawn)	Heat shock 70 kDa protein 1A, with Hdj2 (HSPA1A, Homo sapiens, UniProt P0DMV8)	ATPase activity, inhibitor	–	100 µM, Hsp40-stimulated activity, added: Hdj2 Hsp70:Hsp40 1:0.5	relative to: DMSO, negative means inhibition	fold change in activity	-5.3 fold
COC(=O)c1scc(C)c1NC(=O)C(C)N1CCOCC1C (stereo not drawn)	SCN9A	cell membrane chromatography	–	–	higher = stronger binding	capacity factor k′	12
[S]12[Fe]3[S]4[Fe]1[S]1[Fe]2[S]3[Fe]41	Fe-S cluster assembly factor HCF101, chloroplastic (HCF101, Arabidopsis thaliana, UniProt Q6STH5)	–	–	pH 8.0, 23 °C, reconstituted, added: ferric ammonium citrate, lithium sulfide	–	iron content	3.6 ± 1.2 mol/mol monomer
RNGMKNQFNL	H-2 class I histocompatibility antigen, D-B alpha chain, 17 (H2-D1, Mus musculus, UniProt P01899)	H2-D binding, flow cytometry	peptide, RMA-S	10 µg per 100 µL, 3 h	–	MFI increase	539%
COc1cc2oc(-c3ccc(O)cc3)cc(=O)c2c(O)c1OC	MAL12	enzyme activity, inhibitor, absorbance	–	50 µM	–	inhibition	86.6%
farnesene	chemosensory protein 3 (Chilo suppressalis, UniProt V9PY40)	ligand, competitive fluorescence binding	–	concentration not given, pH 7.4, highest concentration tested, added: 2 µM fluorescent probe	–	fluorescence intensity of probe	88.9 ± 2.75%
CSc1ccc(/C=C2/C(C)=C(CC(=O)O)c3cc(F)ccc32)cc1	Dual specificity calcium/calmodulin-dependent 3',5'-cyclic nucleotide phosphodiesterase 1C (PDE1C, Homo sapiens, UniProt Q14123)	cAMP hydrolysis, inhibitor, IMAP fluorescence polarization	–	up to 200 µM	–	IC50	inactive
CC[C@H](C)[C@H](NC(=O)[C@@H]1CCCN1C(=O)[C@@H]1CCCN1C(=O)[C@@H]1CCCN1C(=O)[C@@H](NC(=O)[C@H](CC(N)=O)NC(=O)[C@@H](N)Cc1ccccc1)[C@@H](C)CC)C(=O)N[C@@H](Cc1ccc(O)cc1)C(=O)N[C@H](C(=O)N[C@@H](CO)C(=O)N[C@@H](CCCNC(=N)N)C(=O)N[C@@H](C)C(=O)O)[C@@H](C)O	WWOX WW1 domain	binding, ITC	–	pH 7.0, 25 °C	–	TΔS	-2.21 ± 0.43 kcal/mol
C[N+](C)(C)C[C@@H](O)CC(=O)[O-]	Organic cation/carnitine transporter 2 (SLC22A5, Homo sapiens, UniProt O76082)	transporter uptake, inhibitor	–	20 µM	–	inhibition	58.5%
CC/C=C/[C@H](CC)C/C(=C/[C@@]1(CC)C[C@H](CC)[C@H](CC(=O)O)OO1)CC	Endothelin-1 receptor (EDNRA, Homo sapiens, UniProt P25101)	ligand displacement, radioligand	–	100 µg/mL, 30 min	–	remaining binding	56%
O=C(O)c1cccc2cccnc12	PY04617 (Plasmodium yoelii, UniProt Q7RFT5)	ultrafiltration HPLC-UV	–	0.1 mM, pH 7.25, 4 °C, 6.5% DMSO, added: methionine competitor	–	UV signal reduction	70.4 ± 2.7%
N[C@@H](CCC(=O)Nc1ccc(F)cc1)C(=O)O	Neutral amino acid transporter B(0) (SLC1A5, Homo sapiens, UniProt Q15758)	–	PC-3	concentration not given, 5 min, 37 °C, added: [3H]-L-serine 150 µM	relative to: basal uptake	[3H]-L-serine uptake	93 ± 1%
CC(=O)N[C@@H]1[C@@H](O)[C@H](O[C@@H]2O[C@H](CO)[C@@H](O[C@@H]3O[C@H](CO[C@H]4O[C@H](CO)[C@@H](O)[C@H](O)[C@@H]4O)[C@@H](O)[C@H](O[C@H]4O[C@H](CO)[C@@H](O)[C@H](O)[C@@H]4O)[C@@H]3O)[C@H](O)[C@H]2NC(C)=O)[C@@H](CO)O[C@H]1NC(=O)C[C@H](N)C(=O)O	NT1 (Nicotiana tabacum, UniProt Q94EW1)	glycan binding, glycan array	–	added: Alexa 488-labelled lectin 150 µg/mL	–	fluorescence	18600 RFU

Substance	target or system	assay	test system	conditions	scale	measurement	value
CC(C)C[C@H](NC(=O)[C@@H](NC(=O)[C@@H](N)[C@@H](C)O)C(C)C)C(=O)N1CCC[C@H]1C(=O)N1CCC[C@H]1C(=O)N1CCC[C@H]1C(=O)N[C@@H](C)C(=O)N[C@@H](Cc1ccc(O)cc1)C(=O)N[C@@H](CCCNC(=N)N)C(=O)N[C@@H](Cc1c[nH]cn1)C(=O)N[C@@H](CCCNC(=N)N)C(=O)N[C@@H](CC(N)=O)C(=O)O	WWOX WW1 domain	binding to WW1 domain, isothermal titration calorimetry	–	concentration not given, pH 7.0, 25 °C	–	binding enthalpy ΔH	-3.63 ± 0.3 kcal/mol
CC1=C(C(=O)OCc2ccccc2)C(c2ccc(-c3ccccc3C)cc2)N(Cc2ccc(-c3nnn[nH]3)cc2)C(=S)N1 (stereo not drawn)	Heat shock 70 kDa protein 1A (HSPA1A, Homo sapiens, UniProt P0DMV8)	ATPase activity, inhibitor	–	100 µM, without Hsp40	relative to: DMSO, negative means inhibition	fold change in activity	-1.3 fold
COc1ccc(C=NN=c2sc(C(=O)c3ccc(Cl)cc3)c(C)n2N=Cc2ccc(OC)cc2)cc1	Albumin (ALB, Bos taurus, UniProt P02769)	fluorescence quenching	phosphate-buffered saline	pH 7.4, 298 K, added: bovine serum albumin 13 µM	–	binding constant	186000 M⁻¹
CSCC[C@H](NC(=O)[C@@H]1CCCN1C(=O)[C@@H](NC(=O)[C@H](Cc1ccc(O)cc1)NC(=O)[C@H](C)NC(=O)[C@@H]1CCCN1C(=O)[C@@H]1CCCN1C(=O)[C@@H]1CCCN1C(=O)[C@H](CO)NC(=O)[C@H](Cc1c[nH]cn1)NC(=O)CN)[C@@H](C)O)C(=O)N[C@@H](CO)C(=O)O	WWOX WW1 domain	binding, ITC	–	pH 7.0, 25 °C	–	ΔH	-3.66 ± 0.33 kcal/mol
COc1ccc(-c2cc(=O)c3ccc(O)cc3o2)cc1	MAL12	enzyme activity, inhibitor, absorbance	–	50 µM	–	inhibition	16.3%
COC(=O)c1scc(C)c1NC(=O)C(C)N1CCOCC1 (stereo not drawn)	SCN9A	cell membrane chromatography	–	–	higher = stronger binding	capacity factor k′	4.8
CC(=O)N[C@@H](Cc1cccs1)C(=O)N[C@H](Cc1ccccc1)C(=O)N[C@@H](CCCNC(=N)N)C(=O)N[C@@H](Cc1csc2ccccc12)C(N)=O	Melanocortin receptor 3 (Mus musculus, UniProt P33033)	receptor activity, agonist, cell-based	–	up to 100 µM, Schild antagonism analysis	–	agonist and antagonist activity	inactive
CQQEPDDLKQKACES	human IgE	peptide microarray	peptide, walnut-allergic patient sera	concentration not given, 16 h, 4 °C	–	patients with IgE binding	8%
C[C@]12C=CC(=O)C=C1CC[C@@H]1C2=CC[C@]2(C)[C@@H](C(=O)CN3CCN(c4cc(N5CCCC5)nc(N5CCCC5)n4)CC3)CC[C@@H]12.O=C(O)/C=C\C(=O)O	Nuclear receptor ROR-alpha (RORA, Homo sapiens, UniProt P35398)	AlphaScreen	–	–	relative to: 25 µM 7α-hydroxycholesterol	maximal response	109%
O=C(CCc1ccccc1)N[C@H]1CNC1=O	N-acylethanolamine-hydrolyzing acid amidase (NAAA, Homo sapiens, UniProt Q02083)	enzyme activity, inhibitor, fluorogenic PAMCA hydrolysis	–	pH 4.5, added: 5 µM PAMCA	–	IC50	inactive
VLASVSATHAKSSPY	human IgE	peptide microarray	peptide, peanut-allergic patient sera	concentration not given, 16 h, 4 °C	–	patients with IgE binding	58%
O=Cc1ccc(COC(=O)c2ccccc2)o1	Hemoglobin subunit alpha, with beta chain (HBA1, Homo sapiens, UniProt P69905)	item: haemoglobin A adduct	human normal whole blood	2000 µM, 24 h, hematocrit 30%	–	peak modification	21%
COc1ccc(-c2cc(=O)c3c(O)cc(OC)cc3o2)cc1	MAL12	enzyme activity, inhibitor, absorbance	–	250 µM	–	inhibition	52%
CC(C)C[C@H](NC(=O)[C@@H](NC(=O)[C@@H](N)[C@@H](C)O)C(C)C)C(=O)N1CCC[C@H]1C(=O)N1CCC[C@H]1C(=O)N1CCC[C@H]1C(=O)N1CCC[C@H]1C(=O)N[C@@H](Cc1ccc(O)cc1)C(=O)N[C@@H](CCCNC(=N)N)C(=O)N[C@@H](C)C(=O)N[C@@H](CCCNC(=N)N)C(=O)N[C@@H](CC(N)=O)C(=O)O	WWOX WW1 domain	binding to WW1 domain, isothermal titration calorimetry	–	pH 7.0, 25 °C	–	entropy term TΔS	-6.2 ± 1.48 kcal/mol
O=c1c(O)c(-c2ccc(O)c(O)c2)oc2cc(O)cc(O)c12	Kcnh1 (Mus musculus, UniProt Q60603)	inside-out patch clamp	Xenopus oocytes	10 µM	–	V1/2 shift	-10.1 ± 3.5 mV
OC1CCCc2ccc(OCc3ccc(Cl)cc3)cc21 (stereo not drawn)	Amine oxidase [flavin-containing] A (MAOA, Homo sapiens, UniProt P21397)	enzyme activity, inhibitor, dialysis reversibility	–	4 × IC50, 24 h dialysis	relative to: no inhibitor	remaining activity	81%

For quick reference, copied from above:
Substance	target or system	assay	test system	conditions	scale	measurement	value
COc1cc2oc(-c3ccc(O)cc3)cc(=O)c2c(O)c1OC	MAL12	enzyme activity, inhibitor, absorbance	–	50 µM	–	inhibition	86.6%
farnesene	chemosensory protein 3 (Chilo suppressalis, UniProt V9PY40)	ligand, competitive fluorescence binding	–	concentration not given, pH 7.4, highest concentration tested, added: 2 µM fluorescent probe	–	fluorescence intensity of probe	88.9 ± 2.75%
CSc1ccc(/C=C2/C(C)=C(CC(=O)O)c3cc(F)ccc32)cc1	Dual specificity calcium/calmodulin-dependent 3',5'-cyclic nucleotide phosphodiesterase 1C (PDE1C, Homo sapiens, UniProt Q14123)	cAMP hydrolysis, inhibitor, IMAP fluorescence polarization	–	up to 200 µM	–	IC50	inactive
CC[C@H](C)[C@H](NC(=O)[C@@H]1CCCN1C(=O)[C@@H]1CCCN1C(=O)[C@@H]1CCCN1C(=O)[C@@H](NC(=O)[C@H](CC(N)=O)NC(=O)[C@@H](N)Cc1ccccc1)[C@@H](C)CC)C(=O)N[C@@H](Cc1ccc(O)cc1)C(=O)N[C@H](C(=O)N[C@@H](CO)C(=O)N[C@@H](CCCNC(=N)N)C(=O)N[C@@H](C)C(=O)O)[C@@H](C)O	WWOX WW1 domain	binding, ITC	–	pH 7.0, 25 °C	–	TΔS	-2.21 ± 0.43 kcal/mol
C[N+](C)(C)C[C@@H](O)CC(=O)[O-]	Organic cation/carnitine transporter 2 (SLC22A5, Homo sapiens, UniProt O76082)	transporter uptake, inhibitor	–	20 µM	–	inhibition	58.5%
